# Published values from different studies.
# Every numbered part comes from another study and shows a few of its results, in no order.

# Series 1
# Target: Prothrombin, mature alpha-thrombin (F2, Homo sapiens, UniProt P00734)
# Method: aptamer microarray, sandwich
# Molecule type: DNA with 2'F-ANA
# Medium: in vitro
# Tested at: 200 nM
# Setting: whole 15-mer aptamer, many near background
# Added: Cy3 exosite-II aptamer, 400 nM
# Reading: higher = stronger binding
# Sequence: GGTTGGTGTGGTTGG
Modification,mean fluorescence intensity [a.u.]
2'F-ANA at 2 3 4 10 13 14,206
2'F-ANA at 1 2 3 5 7 9 10 11 12,52.8
2'F-ANA at 5 6 7 8 9 10 11 12 14 15,51.7
2'F-ANA at 2 3 5 6 7 8 9 10 11 12 13 14 15,56.9
2'F-ANA at 1 3 4 7 9 10 13,55.6
2'F-ANA at 1 2 3 7 9 11 12 14,103
2'F-ANA at 2 3 4 5 8 9 11 12 14 15,150
2'F-ANA at 1 2 4 6 7 8 10 14,45.6
2'F-ANA at 1 2 5 6 7 9 12 15,99
2'F-ANA at 3 6 8 9 10 14,404
2'F-ANA at 5 8 9 12 14,50.4
2'F-ANA at 1 2 7 9 10 11 12 13 14 15,51.4
2'F-ANA at 1 2 4 5 6 7 9 11 13,51.1
2'F-ANA at 2 3 5 6 10 12 13 14 15,76
2'F-ANA at 1 2 6 8 9 10 11 12 13 14 15,84.7
2'F-ANA at 1 3 5 9 10 11 13 15,46.6
2'F-ANA at 1 3 4 8 9 10 12 13 14 15,59.2
2'F-ANA at 1 2 5 7 8 12 13,80.3
2'F-ANA at 3 7 9 11 14,592
2'F-ANA at 2 4 6 8 10 11 13 14 15,62.1
2'F-ANA at 5 6 7 8 10 11 12,54.4
2'F-ANA at 2 3 7 8 9 10 12 14,268
2'F-ANA at 3 7 10 12 14 15,477
2'F-ANA at 5 6 8 12 13 15,111

# Series 2
# Target: TAR DNA-binding protein 43, full length, His tag (TARDBP, Homo sapiens, UniProt Q13148, residues 1-414)
# Method: RNA Bind-n-Seq
# Molecule type: RNA
# Medium: in vitro
# Tested at: 20 nM
# Setting: 6-mer, flanks averaged, single round
# Added: 150 mM LiCl
# Baseline: input library
# Reading: higher = stronger binding
Sequence,6-mer enrichment (R)
UAUUGU,1.13
UACUAU,0.904
ACAGGU,0.902
CGGAUG,1.02
ACACUC,0.877
AUUGAA,0.93
UGUCUA,0.941
AAAGAA,0.904
AUUGCA,0.889
UUUAAA,1.03
GUGCCG,1.07
AUUCCC,0.956
GUAAGA,0.959
ACAACA,0.895
CUUUUU,1.46
UGGGUC,1.08
CGCAUU,0.905
GGAGGG,1.4
UGCUAU,0.978

# Series 3
# Target: RNA binding protein fox-1 homolog 2, RRM domain, GST-SBP tag (RBFOX2, Homo sapiens, UniProt O43251-10, residues 100-194)
# Method: RNA Bind-n-Seq
# Molecule type: RNA
# Medium: in vitro
# Tested at: 365 nM
# Setting: natural RNA segment, single round, ends assumed
# Baseline: no-protein control
# Reading: higher = stronger binding
# Target sequence (chain): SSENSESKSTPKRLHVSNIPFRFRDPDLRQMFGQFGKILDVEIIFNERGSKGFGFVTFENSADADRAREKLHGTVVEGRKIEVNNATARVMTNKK
Sequence,RBNS enrichment (R)
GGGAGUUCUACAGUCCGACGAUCCAUGGUGGCGGCGAAGAAGAGAAAGAUGUGUUUUGUUUUGGACUCUCUGUGGUCCCUUCCAAUGCUGUGGGUUUCCAACCAGGGGAAGGGUCCCUUUUGCAUUGCCAAGUUGGAAUUCUCGGGUGCCAA,1.68
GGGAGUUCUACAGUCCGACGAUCACAGCAUGCUACAGGACAGACCUGCUCUGGAAGCCUGUCAUAGUAAGGCUGGCGUGGCACGUUUGGGGACUCUGCCAGUCGGAGUUGCUGGGCACAUGCUGUGUACCACCUGGAAUUCUCGGGUGCCAA,0.614
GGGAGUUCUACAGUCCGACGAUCUUUUCCUGCAUUGUAAUAUUAUGAGGCCUGAGUCGCAGUUGAGUUUGAAAUUUGUAUUUAAUUUCACAGUGACCUAGAGCUAAGGUGCUCCCGGUUGUGGCAAUAGGAGCUGGAAUUCUCGGGUGCCAA,0.437
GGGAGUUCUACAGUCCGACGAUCGAUAUUUUUGAGCCAUUCUAUUGUGUUCUACUUCACCUAAAAAAAUAAAAUAAAAAUGUUGAUCAAGCAUGGAGUUGAUUUUAUGACCACUAAUGGGUUGUGACCCACAGUGGAAUUCUCGGGUGCCAA,3.24
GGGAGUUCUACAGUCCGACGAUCUCUAGAGGCCGCGGCAGAAGGAGCUCUGUGAGUCCAAGGCCAGCCUGUUCUACAUAGUGAGUUCCAGGCCAGCCAAGACUACAUAGAGCAAUAAAGCCUGGUCUUUCUGUUGGAAUUCUCGGGUGCCAA,0.222
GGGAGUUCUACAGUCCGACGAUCUAUUUUUUGUAAACUAAUAAUUCAUUUGGUGCUGGUCUAUUGAUUGGGGGCCUACUUCUUCAUGGAAGAAUUACUUUUAUUCUCAAACUACAGAAUAAUGUGCUAAGUAGUGGAAUUCUCGGGUGCCAA,0.74
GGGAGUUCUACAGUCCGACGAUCGCCUCUGGGCCCUCCCAGCACACGCAUGGUCUCUUCACCGCUGCCCUCGAGUUCCAUGUCUCUUUCCCCUGCCCCUAGUUGCUGUCUCGGCUGCUCUCCCAUAGUUGGUUUGGAAUUCUCGGGUGCCAA,6.41
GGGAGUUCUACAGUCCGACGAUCCACCACCUAGCCAUAGUCUCAAACCUGUGGGGAAGGAGGUUUUCUCCCUGCCCGGGAAGAGGACAGAUAACUGAUUUCCGUUCUUUUGACUGUGUUUUAAAAUUCUCUUUUGGAAUUCUCGGGUGCCAA,0.206

# Series 4
# Target: Sal-like protein 4, full length isoform A (SALL4, Homo sapiens, UniProt Q9UJQ4, residues 1-1053)
# UniProt Q9UJQ4, sequence (whole entry, looked up): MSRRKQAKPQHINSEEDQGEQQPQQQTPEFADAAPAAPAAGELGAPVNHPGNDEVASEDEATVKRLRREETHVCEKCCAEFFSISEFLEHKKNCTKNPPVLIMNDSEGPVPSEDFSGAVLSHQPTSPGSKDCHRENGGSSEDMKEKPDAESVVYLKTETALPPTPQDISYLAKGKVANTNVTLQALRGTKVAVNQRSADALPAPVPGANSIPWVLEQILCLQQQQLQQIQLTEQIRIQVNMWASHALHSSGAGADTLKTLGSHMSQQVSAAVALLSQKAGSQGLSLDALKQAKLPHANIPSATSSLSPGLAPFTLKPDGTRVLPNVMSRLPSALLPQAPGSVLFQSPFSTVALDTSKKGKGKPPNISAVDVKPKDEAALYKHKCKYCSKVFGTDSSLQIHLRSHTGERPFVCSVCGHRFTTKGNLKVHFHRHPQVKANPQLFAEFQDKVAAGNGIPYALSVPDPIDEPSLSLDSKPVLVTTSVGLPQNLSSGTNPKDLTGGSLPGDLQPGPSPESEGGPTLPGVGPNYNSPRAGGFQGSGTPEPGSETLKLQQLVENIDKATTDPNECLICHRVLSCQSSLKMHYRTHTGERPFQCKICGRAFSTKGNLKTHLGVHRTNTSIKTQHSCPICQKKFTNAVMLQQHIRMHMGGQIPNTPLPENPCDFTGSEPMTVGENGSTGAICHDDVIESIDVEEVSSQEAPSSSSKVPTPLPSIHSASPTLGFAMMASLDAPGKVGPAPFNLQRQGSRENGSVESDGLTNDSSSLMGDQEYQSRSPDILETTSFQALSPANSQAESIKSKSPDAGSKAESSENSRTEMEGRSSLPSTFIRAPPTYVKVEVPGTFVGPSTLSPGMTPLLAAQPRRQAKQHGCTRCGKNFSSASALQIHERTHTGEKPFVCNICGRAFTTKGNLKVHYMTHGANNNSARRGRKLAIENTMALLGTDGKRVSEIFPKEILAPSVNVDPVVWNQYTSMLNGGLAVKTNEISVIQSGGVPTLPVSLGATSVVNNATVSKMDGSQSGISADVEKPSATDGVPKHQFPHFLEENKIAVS
# Method: universal PBM
# Molecule type: double-stranded DNA, one strand shown
# Medium: in vitro
# Tested at: 600 nM
# Setting: 8-mer, flanks averaged, mean of replicates
# Reading: higher = stronger binding
Sequence,E-score
GGAATGTA,0.0205
CCCGAAAA,0.122
AAACTGTA,0.24
ATTAGGCG,-0.0531
GGTTCCGA,-0.279
ACGCTGCA,-0.165
AGGTGAGA,0.00316
ATTTTGTC,0.25
GGAAGTGA,-0.0189
ACTGGCGA,-0.271
CCATTTCC,0.142
GGCGCCCA,-0.278
CAGGTCCC,-0.292
GGAGACAC,-0.153
TCGCGGAA,-0.125
AATATCGA,0.3
GTTATAAC,0.248
AGTATCAC,0.075

# Series 5
# Target: Max dimerization protein 1, bHLH-zipper, MAX partner unstated (MXD1, Homo sapiens, UniProt Q05195, residues 56-136)
# Method: protein-binding microarray
# Molecule type: double-stranded DNA, one strand shown
# Medium: in vitro
# Tested at: not given
# Setting: k-mer, scored over probes, only values ≥0.25
# Reading: higher = stronger binding
# Target sequence (chain): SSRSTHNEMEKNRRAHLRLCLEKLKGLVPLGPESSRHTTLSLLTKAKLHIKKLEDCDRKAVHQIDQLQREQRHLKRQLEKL
Sequence,E-score
AGGGGGGA,0.31
CGTGGGCA,0.254
ACCCACCT,0.303
ACATGCCG,0.385
CACGCGAG,0.379
ACCATGGA,0.254
CTCCCCTC,0.264
ACGACCCA,0.266
CGTGACCC,0.263
ATGTGCGG,0.331
CACCACAC,0.334
ATGCGTCA,0.288
CATGCATC,0.306
CCTCATGC,0.364
GCATGCCA,0.319
ACCACGGG,0.29
CATGGTAA,0.304
CCACGCCC,0.378
ATGTGCGC,0.358
AGCATGGG,0.397
AGTCACGA,0.257
ATGGCATG,0.34
CATGTTAA,0.298
AGTACCAC,0.257
ACATGCAG,0.275
